# Measurements collected from several papers.
# Each line is one published result; not all experiments were run side by side.
Structure (SMILES),test,system,setting,endpoint,value
CNC(=O)c1ccc(-c2cnc3ncc(Cc4ccc5ncccc5c4)n3n2)cc1F,measured: Hypoalbuminemia,cancer patients,"oral, dose not given, dose escalation, grade 3-4",patients with adverse event,3%
CNC(=O)c1cc(Oc2ccc(NC(=O)Nc3cc(C(C)(C)C)nn3-c3ccc4ncccc4c3)c(F)c2)ccn1,,patients,"oral, dose not given, cycles 1 and 2, High AUC subgroup",patients with grade 1 musculoskeletal disorders,22%
O=C(Nc1nc2cccc(-c3ccc(CN4CCS(=O)(=O)CC4)cc3)n2n1)C1CC1,,rheumatoid arthritis patients,"oral, 100 mg twice daily, 4 weeks, TEAE regardless of relatedness",patients with Vertigo,8.3%
CCOc1c([C@H](C)n2nc(C)c3c(N)ncnc32)cc(Cl)c(F)c1[C@@H]1CNC(=O)C1,measured: QTcF ≤450 ms,previously treated B-cell malignancy,"oral, 20 mg once daily, overall population",patients,100%
C[C@@H](Nc1cc(F)cc(F)c1)c1cc(C(=O)N(C)C)cc2c(=O)cc(N3CCOCC3)oc12,measured: Pyrexia,advanced solid tumour patients,"oral, dose not given, dose finding",patients discontinuing for AE,1.6%
Cc1cc(NC2CCN(C(=O)OC3CCN(C(=O)/C=C/CN(C)C)C3)CC2)n2ncc(C(C)C)c2n1 (centres unmarked),"Phase I dose escalation CTCAE v4.0, measured: dermatitis acneiform",patients with advanced solid tumours,"dose not given, TIW dosing grade 3 or higher",patients with adverse event,0%
COc1cc(Nc2ncc3c(n2)-c2ccc(Cl)cc2C(c2c(F)cccc2OC)=NC3)ccc1C(=O)O,"measured: Tracheitis, all grades","cancer patients, phase 1/2","oral, dose not given, with: pembrolizumab",patients with adverse event,4%
Cc1cc(-c2nnc(N)nc2-c2ccc(F)cc2)cc(Cl)n1,measured: Hypothyroidism,"IO-naive mCRPC patients, male","oral, dose not given, treatment-related, grade ≥3",patients with immune-mediated AE,0%

# Repeated from above:
Structure (SMILES),test,system,setting,endpoint,value
O=C(Nc1nc2cccc(-c3ccc(CN4CCS(=O)(=O)CC4)cc3)n2n1)C1CC1,,rheumatoid arthritis patients,"oral, 100 mg twice daily, 4 weeks, TEAE regardless of relatedness",patients with Vertigo,8.3%
